Results pooled from the literature.
Lines come from different studies, so protocols differ. ± marks the error that the study gave.

COc1cnc2cccc(N3CCc4c(cc(Cn5ccnc5C)cc4-c4cn(C)nc4C(F)(F)F)C3=O)c2c1  EC50 (TE-11; cell growth, inhibitor; 120 h): 0.0939 µM
[Cl][Ru][Cl].c1cnc2c(c1)ccc1cccnc12.c1cnc2c(c1)ccc1cccnc12.c1cnc2c(c1)ccc1cccnc12  EC50 (SK-MEL-28; resazurin viability; dark, normoxia): > 300 µM
Cc1cc2c(C(N)=O)cccc2n1-c1nc2c(c(NCc3ccccc3)n1)COCC2  EC50 (HEK293T stably expressing ATF4-FLuc; ISR reporter gene, activator): 0.931 µM
COc1cc(/C=C/c2ccc(O)cc2)cc(OC)c1  EC50 (iPSC-derived cardiomyocytes; concentration-response curve, refers to: MyBP-C protein level; 24 h): 16.5 µM
O=C(NN=Cc1ccc(Br)cc1)C1CC(=O)N(c2ccc(F)cc2F)C1 (stereo not drawn)  EC50 (human foreskin fibroblasts CRL-4001; cell viability, MTT; 72 h): 43.3 ± 5.8 µM
Cc1cc(Nc2ncc(Cl)c(Nc3ccccc3S(=O)(=O)C(C)C)n2)c(OC(C)C)cc1C1CCNCC1  EC50 (iPSC-derived neurons, 2-week differentiating; metabolic activity, CellTiter-Blue; 24 h): 6.8 µM
C[n+]1cc2c3c(ccc2c2ccc4cc5c(cc4c21)OCO5)OCO3  EC50 (iPSC-derived cardiomyocytes; concentration-response curve, refers to: MyBP-C protein level; 24 h): 6.6 µM
[Cl-].[Cl-].[Ru+2].c1cnc2c(c1)ccc1cccnc12.c1cnc2c(c1)ccc1cccnc12.c1csc(-c2ccc(-c3ccc(-c4ccc(-c5nc6c7cccnc7c7ncccc7c6[nH]5)s4)s3)s2)c1  EC50 (SK-MEL-28; resazurin viability; dark, normoxia): 84 µM
CCn1cc(-c2cc(Cn3ccnc3)cc3c2CCN([C@H](c2cc(OC)ccn2)C2CC2)C3=O)c(C(F)(F)F)n1  EC50 (SNU1196; cell growth; 120 h): 12.5 µM
C=C1C(=O)OC2C1CC1OC2C(C)CCC/C(C)=C\CCC1(C)O (stereo not drawn)  EC50 (iPSC-derived cardiomyocytes; concentration-response curve, refers to: MyBP-C protein level): 15.9 µM
Nc1ccccc1NC(=O)c1ccc(CNC(=O)OCc2cccnc2)cc1  viability (OCI-Ly1; 0.1 µM, 120 h): 184%
CCn1c(=O)/c(=C2\Sc3cc(Cl)ccc3N2C)s/c1=C\c1scc[n+]1Cc1ccccc1  EC50 (iPSC-derived cardiomyocytes; concentration-response curve, refers to: MyBP-C protein level; 24 h): 20.8 µM
CCCC[C@@H]1NC(=O)[C@H](Cc2ccc(O)cc2)NC(=O)[C@@H]2CCCN2C(=O)[C@H](CC(=O)O)NC(=O)[C@H](C)NC(=O)[C@H](Cc2ccccc2)NC(=O)[C@@H]2CSCCC(=O)N3CN(CN(C3)C(=O)CCSC[C@@H](C(=O)N[C@@H](C)C(N)=O)NC1=O)C(=O)CCSC[C@H](NC(C)=O)C(=O)N[C@@H](CC(C)(C)C)C(=O)N1CCC[C@H]1C(=O)N[C@@H](CCC(=O)O)C(=O)N[C@H](CCCCNC(=O)CCc1cn(CCOCCOCCOCCOCCOCCC(=O)N[C@H]3CSCCC(=O)N4CN5CN(C4)C(=O)CCSC[C@H](NC(=O)[C@@H](CC(=O)O)NC(=O)[C@H](Cc4cccc6ccccc46)NC(=O)[C@@H]4CCCN4C3=O)C(=O)N[C@@H](CCSC)C(=O)N[C@@H](CCCCNC(=N)N)C(=O)N[C@@H](CC(=O)O)C(=O)N[C@@H](Cc3c[nH]c4ccccc34)C(=O)N[C@@H](CO)C(=O)N[C@@H]([C@@H](C)O)C(=O)N3CCC[C@H]3C(=O)N3C[C@H](O)C[C@H]3C(=O)N[C@@H](Cc3c[nH]c4ccccc34)C(=O)N[C@H](C(N)=O)CSCCC5=O)nn1)C(=O)N1CCC[C@H]1C(=O)N[C@@H](Cc1ccc(O)cc1)C(=O)N2  EC50 (human PBMC with HT-1376 coculture; IL-2 secretion; added: anti-CD3): 0.0016 µM
CC(C)NCCCn1c(Sc2cc3c(cc2I)OCO3)nc2c(N)ncnc21  EC50 (iPSC-derived cardiomyocytes; concentration-response curve, refers to: MyBP-C/MYH ratio; 24 h): 1.3 µM
CCn1cc(-c2cc(Cn3ccoc3=N)cc3c2CCN([C@@H](C)c2cc(OC)ccn2)C3=O)c(C(F)(F)F)n1  EC50 (SNU878; cell growth, inhibitor; 120 h): > 30 µM
CCCCCCCCCc1ccc(OCCOCCOCCOCCOCCOCCOCCOCCOCCO)cc1  EC50 (iPSC-derived cardiomyocytes; concentration-response curve, refers to: MyBP-C protein level; 24 h): 24.4 µM
Cc1nn(-c2nc3c(F)cc(F)cc3s2)c(O)c1C(c1ccc(C(F)(F)F)cc1)c1c(C)nn(-c2nc3c(F)cc(F)cc3s2)c1O  EC50 (THP1-Dual; IFN reporter gene, inhibitor, luciferase reporter; added: HT-DNA): 12.6 µM
O=C(NN=Cc1ccc(Cl)cc1)C1CC(=O)N(c2ccc(F)cc2F)C1 (stereo not drawn)  EC50 (human foreskin fibroblasts CRL-4001; cell viability, MTT; 72 h): 66 ± 7.2 µM
CC[C@H](C)[C@H](NC(=O)[C@H](CCCNC(=N)N)NC(=O)[C@H](CCCNC(=N)N)NC(=O)[C@H](CC(C)C)NC(=O)CNC(=O)[C@H](CCC(N)=O)NC(=O)[C@@H](NC(=O)[C@@H](NC(=O)[C@H](Cc1c[nH]c2ccccc12)NC(=O)[C@@H](NC(=O)[C@H](CCC(=O)O)NC(=O)[C@@H]1CCCN1C(=O)[C@@H](N)CCCNC(=N)N)[C@@H](C)CC)[C@@H](C)CC)[C@@H](C)O)C(=O)NCC(=O)N[C@@H](CC(=O)O)C(=O)N[C@@H](CCC(=O)O)C(=O)N[C@@H](Cc1ccccc1)C(=O)N[C@@H](CC(N)=O)C(=O)N[C@@H](C)C(=O)N[C@@H](Cc1ccc(O)cc1)C(=O)N[C@@H](Cc1ccc(O)cc1)C(=O)N[C@@H](C)C(=O)N[C@@H](CCCNC(=N)N)C(N)=O  EC50 (cells, 2924 murine, Myc/Bcl-2, Bcl-2 dependent; mitochondrial depolarization, BH3 profiling with JC-1; 3 h): 11 ± 5 µM
[Cl-].[Cl-].[Ru+2].c1cnc2c(c1)ccc1cccnc12.c1cnc2c(c1)ccc1cccnc12.c1csc(-c2ccc(-c3ccc(-c4nc5c6cccnc6c6ncccc6c5[nH]4)s3)s2)c1  EC50 (SK-MEL-28; resazurin viability; dark, hypoxia 1% O2): < 100 µM
O=C(/C=C/c1ccc(CN(CCO)CCc2c[nH]c3ccccc23)cc1)NO  viability (OCI-Ly1; 0.1 µM, 120 h): 36.6%
C[C@]12CCCN1CC1=NNC(=O)c3cc(F)cc4[nH]c2c1c34  EC50 (SGC-7901 gastric cancer cells; cell viability; concentration not given, added: with temozolomide): > 10 µM
O=C1c2ccccc2N=C2N(c3ccccc3)CCC12O (stereo not drawn)  EC50 (COS-7; cytokinesis; 24 h): 24 µM
C=C1C(=O)O[C@H]2[C@H]1CC/C(C)=C/CC[C@@]1(C)O[C@@H]21  EC50 (iPSC-derived cardiomyocytes; concentration-response curve, refers to: MyBP-C protein level; 24 h): 6.6 µM
CCN(N=Cc1ccc(Br)cc1)C(=O)C1CC(=O)N(c2ccc(F)cc2F)C1 (stereo not drawn)  EC50 (human foreskin fibroblasts CRL-4001; cell viability, MTT; 72 h): 91.7 ± 14.3 µM
CN(C)c1ccc(C(=C2C=CC(=[N+](C)C)C=C2)c2ccc(N(C)C)cc2)cc1  EC50 (iPSC-derived cardiomyocytes; concentration-response curve, refers to: MyBP-C/MYH ratio; 24 h): 14.6 µM
[Cl-].[Cl-].[Ru+2].c1cnc2c(c1)ccc1cccnc12.c1cnc2c(c1)ccc1cccnc12.c1csc(-c2nc3c4cccnc4c4ncccc4c3[nH]2)c1  EC50 (SK-MEL-28; normoxia, added: visible light 400-700 nm, 100 J/cm2): ~0.6 µM

Excerpt of the above:
CCn1cc(-c2cc(Cn3ccoc3=N)cc3c2CCN([C@@H](C)c2cc(OC)ccn2)C3=O)c(C(F)(F)F)n1  EC50 (SNU878; cell growth, inhibitor; 120 h): > 30 µM
CCCCCCCCCc1ccc(OCCOCCOCCOCCOCCOCCOCCOCCOCCO)cc1  EC50 (iPSC-derived cardiomyocytes; concentration-response curve, refers to: MyBP-C protein level; 24 h): 24.4 µM
